Published values collected from several papers.
Every numbered part comes from another study and shows a few of its results, in no order. Several values in a cell are separate wells, animals, samples, runs or records.
Sequence of UniProt P21709 (whole entry, looked up): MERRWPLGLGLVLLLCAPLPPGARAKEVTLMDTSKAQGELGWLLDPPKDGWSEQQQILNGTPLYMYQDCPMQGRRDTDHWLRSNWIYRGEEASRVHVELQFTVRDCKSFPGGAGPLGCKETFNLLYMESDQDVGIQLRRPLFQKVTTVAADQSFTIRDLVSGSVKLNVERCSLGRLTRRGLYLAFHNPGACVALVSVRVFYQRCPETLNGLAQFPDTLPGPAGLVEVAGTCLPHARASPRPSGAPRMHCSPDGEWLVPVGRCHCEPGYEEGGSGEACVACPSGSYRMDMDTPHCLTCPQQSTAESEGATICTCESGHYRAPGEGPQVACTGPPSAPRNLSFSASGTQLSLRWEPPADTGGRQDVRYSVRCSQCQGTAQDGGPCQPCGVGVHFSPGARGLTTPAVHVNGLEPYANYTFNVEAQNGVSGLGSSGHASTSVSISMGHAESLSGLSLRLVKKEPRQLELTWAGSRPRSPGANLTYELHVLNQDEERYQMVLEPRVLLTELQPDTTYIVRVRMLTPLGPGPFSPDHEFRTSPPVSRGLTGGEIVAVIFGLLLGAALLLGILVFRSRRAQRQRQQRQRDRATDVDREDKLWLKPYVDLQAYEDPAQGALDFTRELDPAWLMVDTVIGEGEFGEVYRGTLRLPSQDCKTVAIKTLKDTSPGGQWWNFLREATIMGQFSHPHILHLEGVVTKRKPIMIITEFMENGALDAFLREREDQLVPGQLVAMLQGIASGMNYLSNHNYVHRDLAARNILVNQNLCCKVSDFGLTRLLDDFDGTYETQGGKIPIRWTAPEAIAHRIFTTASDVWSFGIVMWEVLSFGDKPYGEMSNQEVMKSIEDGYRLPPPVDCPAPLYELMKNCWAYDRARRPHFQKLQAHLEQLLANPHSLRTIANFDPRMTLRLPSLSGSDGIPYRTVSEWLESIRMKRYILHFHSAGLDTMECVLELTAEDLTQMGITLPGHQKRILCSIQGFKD
Sequence of UniProt Q9Y2K2 (whole entry, looked up): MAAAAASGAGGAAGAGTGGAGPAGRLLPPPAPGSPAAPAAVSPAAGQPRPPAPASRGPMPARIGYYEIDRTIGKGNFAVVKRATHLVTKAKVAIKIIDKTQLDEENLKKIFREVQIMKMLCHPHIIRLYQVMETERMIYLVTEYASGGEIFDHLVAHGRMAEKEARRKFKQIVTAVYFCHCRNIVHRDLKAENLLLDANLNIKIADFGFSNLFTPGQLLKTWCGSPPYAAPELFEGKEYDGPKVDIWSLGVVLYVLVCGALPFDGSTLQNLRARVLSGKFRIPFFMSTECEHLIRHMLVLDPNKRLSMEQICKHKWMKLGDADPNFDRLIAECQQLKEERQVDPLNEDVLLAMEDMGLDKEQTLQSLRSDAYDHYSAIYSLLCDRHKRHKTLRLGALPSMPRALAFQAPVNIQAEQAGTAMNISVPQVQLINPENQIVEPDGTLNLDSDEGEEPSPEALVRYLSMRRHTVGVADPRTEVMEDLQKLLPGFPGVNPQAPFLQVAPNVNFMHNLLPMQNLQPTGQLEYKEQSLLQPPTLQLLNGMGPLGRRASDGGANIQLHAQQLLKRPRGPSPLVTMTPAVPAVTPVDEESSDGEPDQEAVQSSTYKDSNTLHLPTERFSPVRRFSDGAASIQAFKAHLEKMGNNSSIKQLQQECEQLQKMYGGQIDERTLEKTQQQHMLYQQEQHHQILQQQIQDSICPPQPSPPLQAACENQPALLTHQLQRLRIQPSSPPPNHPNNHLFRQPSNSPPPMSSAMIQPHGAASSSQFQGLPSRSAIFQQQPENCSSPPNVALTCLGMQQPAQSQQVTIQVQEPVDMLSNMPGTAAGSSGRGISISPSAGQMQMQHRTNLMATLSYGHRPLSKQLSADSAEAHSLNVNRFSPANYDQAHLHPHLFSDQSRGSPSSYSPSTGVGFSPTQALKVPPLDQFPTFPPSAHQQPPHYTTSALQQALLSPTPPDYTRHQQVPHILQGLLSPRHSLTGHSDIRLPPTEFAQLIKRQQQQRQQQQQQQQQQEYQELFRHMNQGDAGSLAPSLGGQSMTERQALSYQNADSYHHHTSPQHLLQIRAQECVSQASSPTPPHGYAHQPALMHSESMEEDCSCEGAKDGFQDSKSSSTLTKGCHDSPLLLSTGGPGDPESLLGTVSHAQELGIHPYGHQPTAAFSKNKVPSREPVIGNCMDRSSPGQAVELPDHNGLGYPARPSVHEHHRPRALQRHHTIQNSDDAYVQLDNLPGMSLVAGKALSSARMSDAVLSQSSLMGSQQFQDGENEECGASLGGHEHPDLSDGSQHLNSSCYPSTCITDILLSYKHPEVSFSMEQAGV
Sequence of UniProt P21802 (whole entry, looked up): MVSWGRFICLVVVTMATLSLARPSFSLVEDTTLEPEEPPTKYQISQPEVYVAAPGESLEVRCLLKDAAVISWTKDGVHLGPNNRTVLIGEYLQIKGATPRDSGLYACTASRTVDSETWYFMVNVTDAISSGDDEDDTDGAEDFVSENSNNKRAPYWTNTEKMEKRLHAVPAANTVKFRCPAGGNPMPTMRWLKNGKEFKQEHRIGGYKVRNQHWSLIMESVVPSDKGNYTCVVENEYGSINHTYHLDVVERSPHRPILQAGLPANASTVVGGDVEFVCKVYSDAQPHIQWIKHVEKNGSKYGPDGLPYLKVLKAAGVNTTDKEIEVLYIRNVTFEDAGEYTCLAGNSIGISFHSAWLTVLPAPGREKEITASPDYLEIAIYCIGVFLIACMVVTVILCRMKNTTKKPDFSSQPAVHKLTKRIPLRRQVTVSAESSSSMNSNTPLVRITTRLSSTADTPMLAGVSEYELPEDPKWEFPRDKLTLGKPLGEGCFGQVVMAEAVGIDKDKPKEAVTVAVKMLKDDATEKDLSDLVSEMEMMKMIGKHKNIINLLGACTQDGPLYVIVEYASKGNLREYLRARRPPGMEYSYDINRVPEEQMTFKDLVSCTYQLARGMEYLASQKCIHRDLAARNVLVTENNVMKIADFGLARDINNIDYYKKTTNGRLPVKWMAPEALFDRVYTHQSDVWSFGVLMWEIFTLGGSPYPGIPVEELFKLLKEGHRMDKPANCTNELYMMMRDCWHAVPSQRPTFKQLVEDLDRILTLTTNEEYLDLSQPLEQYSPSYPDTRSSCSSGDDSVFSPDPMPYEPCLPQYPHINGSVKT
Sequence of UniProt P48730 (whole entry, looked up): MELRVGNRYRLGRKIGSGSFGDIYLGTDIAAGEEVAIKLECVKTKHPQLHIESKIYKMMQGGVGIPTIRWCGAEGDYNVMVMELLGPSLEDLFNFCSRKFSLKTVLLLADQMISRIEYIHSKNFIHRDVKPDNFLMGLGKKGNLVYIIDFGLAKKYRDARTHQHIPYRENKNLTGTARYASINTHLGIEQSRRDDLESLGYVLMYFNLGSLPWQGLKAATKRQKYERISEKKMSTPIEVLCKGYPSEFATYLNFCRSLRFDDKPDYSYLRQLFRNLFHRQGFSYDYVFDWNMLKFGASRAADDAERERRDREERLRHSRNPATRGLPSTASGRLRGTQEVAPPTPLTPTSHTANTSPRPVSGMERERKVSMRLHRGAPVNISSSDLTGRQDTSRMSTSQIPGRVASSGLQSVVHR
Sequence of UniProt P00519 (whole entry, unmodified, looked up): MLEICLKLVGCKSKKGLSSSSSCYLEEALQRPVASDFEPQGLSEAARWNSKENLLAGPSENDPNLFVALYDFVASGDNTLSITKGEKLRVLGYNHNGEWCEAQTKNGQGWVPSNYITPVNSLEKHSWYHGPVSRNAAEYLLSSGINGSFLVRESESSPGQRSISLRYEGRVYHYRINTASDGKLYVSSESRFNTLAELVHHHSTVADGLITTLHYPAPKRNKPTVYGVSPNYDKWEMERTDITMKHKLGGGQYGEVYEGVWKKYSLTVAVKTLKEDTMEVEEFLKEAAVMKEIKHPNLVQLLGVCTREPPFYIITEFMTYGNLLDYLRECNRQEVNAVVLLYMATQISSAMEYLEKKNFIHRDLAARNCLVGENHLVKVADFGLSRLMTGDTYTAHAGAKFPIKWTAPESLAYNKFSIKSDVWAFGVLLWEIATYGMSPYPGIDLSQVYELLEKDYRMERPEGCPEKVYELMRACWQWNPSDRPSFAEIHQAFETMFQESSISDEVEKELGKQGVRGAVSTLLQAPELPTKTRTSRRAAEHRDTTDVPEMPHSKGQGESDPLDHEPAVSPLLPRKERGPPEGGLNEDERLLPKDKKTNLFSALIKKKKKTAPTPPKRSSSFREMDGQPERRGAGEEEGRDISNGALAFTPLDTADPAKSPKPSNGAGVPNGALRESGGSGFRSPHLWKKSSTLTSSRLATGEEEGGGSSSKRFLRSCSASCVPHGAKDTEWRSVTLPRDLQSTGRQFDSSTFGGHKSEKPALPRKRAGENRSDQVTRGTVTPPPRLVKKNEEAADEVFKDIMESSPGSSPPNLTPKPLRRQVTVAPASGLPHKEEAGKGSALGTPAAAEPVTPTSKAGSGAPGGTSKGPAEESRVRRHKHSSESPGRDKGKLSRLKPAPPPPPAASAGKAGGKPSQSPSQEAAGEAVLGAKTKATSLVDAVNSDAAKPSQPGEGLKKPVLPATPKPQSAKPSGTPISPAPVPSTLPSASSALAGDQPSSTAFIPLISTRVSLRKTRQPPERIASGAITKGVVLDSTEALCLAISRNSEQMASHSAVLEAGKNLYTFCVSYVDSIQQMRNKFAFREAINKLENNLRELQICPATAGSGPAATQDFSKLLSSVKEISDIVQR
Sequence of UniProt P45985 (whole entry, looked up): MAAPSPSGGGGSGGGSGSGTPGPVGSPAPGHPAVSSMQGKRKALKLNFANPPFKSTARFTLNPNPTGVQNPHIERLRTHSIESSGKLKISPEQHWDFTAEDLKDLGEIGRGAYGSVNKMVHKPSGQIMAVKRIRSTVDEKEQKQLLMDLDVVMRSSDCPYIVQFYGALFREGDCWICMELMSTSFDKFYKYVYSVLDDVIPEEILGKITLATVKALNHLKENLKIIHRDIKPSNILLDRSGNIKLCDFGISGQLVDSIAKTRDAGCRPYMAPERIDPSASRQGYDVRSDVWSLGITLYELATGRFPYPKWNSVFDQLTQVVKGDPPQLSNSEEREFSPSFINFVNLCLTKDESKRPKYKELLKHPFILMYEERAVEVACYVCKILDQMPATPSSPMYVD

Series 1
SMILES: CC(C)C[C@@H]1NC(=O)[C@@H](N(C)C(=O)[C@H](CC2CCC2)NC(=O)[C@@H]2C[C@@H](F)CN2C(=O)C2(C(F)(F)F)CC(F)(F)C2)CCCCNC(=O)C2(CC2)NC(=O)[C@H](Cc2cc(Cl)ccc2Cl)N(C)C1=O
cell line | assay | setting | how to read | cell count
NCI-H446 sgCtrl | dose-response | 6 nM, 6 d | relative to: DMSO-treated | 0.141 and 0.147 and 0.101
Jurkat, doxycycline-inducible E2F1 |  | 20 nM, 6 days, doxycycline added | relative to: DMSO | 0.464 and 0.682 and 0.55
NCI-H82 | Vi-Cell counting | 20 µM, 6 days | relative to: DMSO | 0.18 and 0.27 and 0.23
MDA-MB-231 DOX-inducible E2F1 |  | 20 nM, 6 days, with: doxycycline | relative to: DMSO | 0.684 and 0.961 and 0.956
NCI-H446 | Vi-Cell counting | 60 nM, 3 days, without Mps1 inhibitor | relative to: DMSO | 0.246 and 0.258
NCI-H1299 | Vi-Cell counting | 200 nM, 6 days | relative to: DMSO | 0.717 and 0.778 and 0.605
NCI-H446 | Vi-Cell counting | 200 nM, 3 days, without Mps1 inhibitor | relative to: DMSO | 0.302 and 0.185
Jurkat, doxycycline-inducible E2F1 |  | 60 nM, 6 days, doxycycline added | relative to: DMSO | 0.53 and 0.353 and 0.435

Series 2
SMILES: C[C@@H](c1cccc(C#N)c1)n1cc(Cl)cc(C(N)=O)c1=N
Concentration: 1 µM
target | read-out | method | remaining binding
Ephrin type-A receptor 1 (EPHA1, Homo sapiens, UniProt P21709) | cell-free assay | competition with immobilised ligand | 77%
Tyrosine-protein kinase Blk (BLK, Homo sapiens, UniProt P51451) | cell-free assay | competition with immobilised ligand | 85%
Protein kinase C eta type (PRKCH, Homo sapiens, UniProt P24723) | cell-free assay | competition with immobilised ligand | 98%
Tyrosine-protein kinase ABL1, phosphorylated (ABL1, Homo sapiens, UniProt P00519, F317I) | binding |  | 100%
Phosphatidylinositol 4,5-bisphosphate 3-kinase catalytic subunit alpha isoform (PIK3CA, Homo sapiens, UniProt P42336, E542K) | cell-free assay | competition with immobilised ligand | 89%
RAC-alpha serine/threonine-protein kinase (AKT1, Homo sapiens, UniProt P31749) | cell-free assay | competition with immobilised ligand | 100%
Rhodopsin kinase GRK1 (GRK1, Homo sapiens, UniProt Q15835) | cell-free assay | competition with immobilised ligand | 75%
Proto-oncogene tyrosine-protein kinase ROS (ROS1, Homo sapiens, UniProt P08922) | cell-free assay | competition with immobilised ligand | 100%
Fibroblast growth factor receptor 2 (FGFR2, Homo sapiens, UniProt P21802) | cell-free assay | competition with immobilised ligand | 67%
Serine/threonine-protein kinase PAK 1 (PAK1, Homo sapiens, UniProt Q13153) | cell-free assay | competition with immobilised ligand | 100%
Calcium/calmodulin-dependent protein kinase kinase 1 (CAMKK1, Homo sapiens, UniProt Q8N5S9) | cell-free assay | competition with immobilised ligand | 100%
Serine/threonine-protein kinase SIK3 (SIK3, Homo sapiens, UniProt Q9Y2K2) | cell-free assay | competition with immobilised ligand | 94%
Dual specificity mitogen-activated protein kinase kinase 4 (MAP2K4, Homo sapiens, UniProt P45985) | cell-free assay | competition with immobilised ligand | 82%
Casein kinase I isoform delta (CSNK1D, Homo sapiens, UniProt P48730) | cell-free assay | competition with immobilised ligand | 100%
5'-AMP-activated protein kinase catalytic subunit alpha-1 (PRKAA1, Homo sapiens, UniProt Q13131) | cell-free assay | competition with immobilised ligand | 100%

Series 3
Cell line: mouse MPNST tumor cells
Method: high-content nuclear imaging
Refers to: cell number
Concentration: 10 µM
Time: 12 h
Notes: mean of 2 replicates
Relative to: plate mean
Reading: higher = more cells
Structure (SMILES) | nuclei count
O=C1NC(=NCc2cccs2)S/C1=C\c1ccc2ncccc2c1 | -1.93 z-score
O=C1c2ccccc2-c2c(NCCc3ccccc3)c(=O)[nH]c3cccc1c23 | -0.0224 z-score
Cn1c(CNc2cccc(C(=O)NCc3ccccc3C(F)(F)F)c2)nnc1-c1ccncc1 | -1.17 z-score
CCCOc1ccc(Br)cc1-c1cc(-c2ccc(Cl)cc2)[nH]c1-c1ccncc1 | -0.081 z-score
Cc1cc(C(C)Nc2ccccc2)c2nc(N3CCOCC3)cc(=O)n2c1 (stereo not drawn) | -1.99 z-score
CC(=O)OCC(=O)[C@@]1(O)[C@H](C)C[C@H]2[C@@H]3CCC4=CC(=O)C=C[C@]4(C)[C@@]3(F)[C@@H](O)C[C@@]21C | 2.65 z-score
O=S1(=O)N[C@H]2CCCN2c2ccccc21 | 1.31 z-score
CO[C@H]1C[C@H](O[C@H]2[C@H](C)[C@@H](O[C@@H]3O[C@H](C)C[C@H](N(C)C)[C@H]3OC(C)=O)[C@@H](C)C[C@@]3(CO3)C(=O)[C@H](C)[C@@H](OC(C)=O)[C@@H](C)[C@@H](C)OC(=O)[C@@H]2C)O[C@@H](C)[C@@H]1OC(C)=O | 2.45 z-score
Oc1cccc(Nc2ccnc3cc(-c4cccc(CN5CCOCC5)c4)sc23)c1 | -6.13 z-score
CCN(CC)CCN(Cc1ccc(-c2ccc(C(F)(F)F)cc2)cc1)C(=O)Cn1c(SCc2ccc(F)cc2)nc(=O)c2c1CCC2 | -5.41 z-score
Cc1cn[nH]c1 | 1.64 z-score and 1.99 z-score
Clc1ccc(C(Cn2ccnc2)OCc2c(Cl)cccc2Cl)c(Cl)c1 (stereo not drawn) | 2.53 z-score

Series 4
Target: Serine/threonine-protein kinase haspin (HASPIN, Homo sapiens, UniProt Q8TF76)
Read-out: enzyme activity
Mode: inhibitor
Concentration: 0.5 µM
Relative to: control
Construct (Q8TF76 1-798): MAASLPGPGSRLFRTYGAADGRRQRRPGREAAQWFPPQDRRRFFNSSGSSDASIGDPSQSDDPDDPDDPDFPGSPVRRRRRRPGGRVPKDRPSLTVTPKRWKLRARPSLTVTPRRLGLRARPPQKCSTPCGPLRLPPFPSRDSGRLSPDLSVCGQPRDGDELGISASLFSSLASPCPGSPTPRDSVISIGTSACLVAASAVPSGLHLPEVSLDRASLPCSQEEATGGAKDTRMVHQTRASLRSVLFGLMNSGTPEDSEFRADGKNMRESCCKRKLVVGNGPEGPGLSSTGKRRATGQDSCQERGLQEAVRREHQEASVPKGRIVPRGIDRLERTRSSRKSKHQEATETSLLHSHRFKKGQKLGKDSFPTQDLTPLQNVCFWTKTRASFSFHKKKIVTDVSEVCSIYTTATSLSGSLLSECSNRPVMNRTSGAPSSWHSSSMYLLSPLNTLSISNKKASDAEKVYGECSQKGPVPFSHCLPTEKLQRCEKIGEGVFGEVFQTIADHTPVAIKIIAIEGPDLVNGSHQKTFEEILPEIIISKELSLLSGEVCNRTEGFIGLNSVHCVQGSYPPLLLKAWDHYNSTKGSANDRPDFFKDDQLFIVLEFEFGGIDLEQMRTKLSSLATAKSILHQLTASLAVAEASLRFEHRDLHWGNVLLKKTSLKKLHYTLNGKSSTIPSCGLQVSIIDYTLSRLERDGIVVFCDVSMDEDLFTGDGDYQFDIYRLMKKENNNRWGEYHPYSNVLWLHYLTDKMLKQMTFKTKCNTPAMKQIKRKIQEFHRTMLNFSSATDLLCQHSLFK
SMILES | remaining activity
O=C1NC(=O)c2c1c1c3ccccc3[nH]c1c1[nH]c3cc(Br)ccc3c21 | 72.9%
O=C1Nc2ccc(Br)cc2/C1=C/c1cc2c([nH]1)CCCC2 | 88%
COc1ccc(COc2ccc(Cc3cnc(N)nc3N)cc2OC)cc1 | 97.7%
CCCNC(=O)Nc1ccc(Oc2ncnc3cc(OC)c(OC)cc23)cc1Cl | 99.1%
CN1CCN(c2ccc3nc(-c4c(N)c5c(F)cccc5[nH]c4=O)[nH]c3c2)CC1 | 75%
c1ccc2c(-c3ccncc3)c[nH]c2c1 | 62.3%
CCCCc1c(-c2ccc(OC)cc2)[nH]c2nccnc12 | 80%
O=Nc1c(-c2c(O)[nH]c3cc(Br)ccc23)[nH]c2ccccc12 | 95.9%
O=C1Cc2c([nH]c3ccc(Br)cc23)-c2ccccc2N1 | 89.1%
Cc1ccc(S(=O)(=O)/C=C/C#N)cc1 | 101%

For quick reference, copied from above (series 2):
target | read-out | method | remaining binding
Proto-oncogene tyrosine-protein kinase ROS (ROS1, Homo sapiens, UniProt P08922) | cell-free assay | competition with immobilised ligand | 100%
Fibroblast growth factor receptor 2 (FGFR2, Homo sapiens, UniProt P21802) | cell-free assay | competition with immobilised ligand | 67%
Serine/threonine-protein kinase PAK 1 (PAK1, Homo sapiens, UniProt Q13153) | cell-free assay | competition with immobilised ligand | 100%
Calcium/calmodulin-dependent protein kinase kinase 1 (CAMKK1, Homo sapiens, UniProt Q8N5S9) | cell-free assay | competition with immobilised ligand | 100%
Serine/threonine-protein kinase SIK3 (SIK3, Homo sapiens, UniProt Q9Y2K2) | cell-free assay | competition with immobilised ligand | 94%
